Measured values gathered from unrelated publications.
Compare with care: the assays were run in different laboratories.

| Structure (SMILES) | technique | host | medium | route | dose | notes | AUC(0-t) |
| --- | --- | --- | --- | --- | --- | --- | --- |
| O=C(N[C@@H](CC1CCCCC1)C(=O)N[C@@H](C[C@H]1CCNC1=O)C(=O)C(=O)NC1CC1)OCc1cccc(Cl)c1 |  | female Sprague-Dawley rat | plasma | oral | 10 mg/kg | single dose | 3370 ng·h/mL |
| COCCCN1CCc2c(Cc3ccc(Cl)cc3)[nH]c3c(OC(F)F)ccc(c23)C1=O |  | male Sprague-Dawley rat | blood | intravenous | 2.5 mg/kg |  | 1120 ng·h/mL |
| CNc1cc(C(=O)Nc2ccc(Cl)cc2)ccc1OC |  | male Sprague-Dawley rat | plasma | oral | 20 mg/kg | single dose | 7540 ng·h/mL |
| Cn1cc(-c2cc(N3CCCCS3(=O)=O)ccc2N[C@H]2CC[C@H](C)CC2)c2cc[nH]c2c1=O (stereo in doubt) |  | Sprague-Dawley rat | plasma | oral | 3 mg/kg |  | 190 ng·h/mL |
| CC12CC3CC(C)(C1)CC(NC(=O)Nc1ccc(C(=O)N4CCC[C@H](C(N)=O)C4)cc1F)(C3)C2 |  | Sprague-Dawley rat | plasma | oral | 50 mg/kg |  | 5.57 µM·h |
| NC(=O)c1cccnc1.O.O=c1[nH]cc(F)c(=O)[nH]1.O=c1[nH]cc(F)c(=O)[nH]1.O=c1[nH]cc(F)c(=O)[nH]1 |  | rat | plasma | oral | 0.06 mmol/kg |  | 14 µM·h |
| COc1ccc2c(c1OCc1ccccc1)C[C@@H](C(=O)O)N(c1nc3ccc(C#N)cc3o1)C2 |  | male Sprague-Dawley rat | plasma | oral | 10 mg/kg |  | 44100 ng·h/mL |
| CNC(=O)N[C@]1(C)CCC[C@@]2(C)C3CC[C@@]4(C)C[C@]3(CCC21)CC4=O (single isomer, unassigned) |  | male Sprague-Dawley rat | plasma | intravenous | 2 mg/kg |  | 1090 ng·h/mL |
| CSCOC1C(=O)C2(C)C(OCSC)CC3OCC3(OC(C)=O)C2C(OC(=O)c2ccccc2)C2(O)CC(OC(=O)C(O)C(C=C(C)C)NC(=O)OC(C)(C)C)C(C)=C1C2(C)C (stereo not drawn) |  | male Sprague-Dawley rat | plasma | intravenous | 1 mg/kg |  | 149 ng·h/mL |
| CC1(C)C2CCC1(C)C(OC(=O)/C=C/c1ccc(O)c(O)c1)C2 (stereo not drawn) |  | Sprague-Dawley rat | plasma | oral | 30 mg/kg |  | 1470 ng·h/mL |
| Cn1cc(-c2cc(N3CCCS3(=O)=O)ccc2N[C@H]2CC[C@H](C)CC2)c2cc[nH]c2c1=O |  | Sprague-Dawley rat | plasma | oral | 3 mg/kg |  | 97.3 ng·h/mL |
| COC(=O)c1ccc2c(c1)NC(=O)/C2=C(\Nc1ccc2c(c1)CCN2C(=O)CN1CCOCC1)c1ccccc1 |  | Sprague-Dawley rat | plasma | intravenous | 2 mg/kg |  | 1880 ng·h/mL |
| Cc1ccc(OCC(=O)N(Cc2cccs2)c2ccn[nH]2)cc1 |  | male Sprague-Dawley rat | plasma | oral | 100 mg/kg | single dose | 50.1 ng·h/mL |
| N#Cc1cnc2cc(OCC3CCNCC3)c(F)cc2c1Nc1cc(F)c(OCc2cccc(Cl)n2)cc1Cl |  | male Sprague-Dawley rat | plasma | oral | 100 mg/kg |  | 2720 ng·h/mL |
| Nc1nc(Cl)nc2c1ncn2Cc1cc(OCC(F)F)cc(OC(F)F)c1 |  | Sprague-Dawley rat | plasma | oral | 5 mg/kg |  | 20500 ng·h/mL |
| COc1cc(NC(C)=O)c2c(c1O)-c1c(OC)c(OC)cc3c1C(C2)N(C)CC3 (stereo not drawn) | HPLC | male Wistar rat | plasma | intravenous | 100 mg/kg |  | 36200 ng·h/mL |
| CC12CC3CC(C)(C1)CC(NC(=O)Nc1ccc(C(=O)N4CCCC(C(N)=O)C4)cc1)(C3)C2 (stereo not drawn) |  | Sprague-Dawley rat | plasma | intravenous | 10 mg/kg |  | 10.1 µM·h |
| COc1ccc(COc2c(OC)ccc3c2C[C@@H](C(=O)O)N(c2nc4ccc(F)cc4o2)C3)cn1 |  | male Sprague-Dawley rat | plasma | oral | 10 mg/kg |  | 15200 ng·h/mL |

Some of these lines once more:
| Structure (SMILES) | technique | host | medium | route | dose | notes | AUC(0-t) |
| --- | --- | --- | --- | --- | --- | --- | --- |
| COc1ccc2c(c1OCc1ccccc1)C[C@@H](C(=O)O)N(c1nc3ccc(C#N)cc3o1)C2 |  | male Sprague-Dawley rat | plasma | oral | 10 mg/kg |  | 44100 ng·h/mL |
| CNC(=O)N[C@]1(C)CCC[C@@]2(C)C3CC[C@@]4(C)C[C@]3(CCC21)CC4=O (single isomer, unassigned) |  | male Sprague-Dawley rat | plasma | intravenous | 2 mg/kg |  | 1090 ng·h/mL |
| CSCOC1C(=O)C2(C)C(OCSC)CC3OCC3(OC(C)=O)C2C(OC(=O)c2ccccc2)C2(O)CC(OC(=O)C(O)C(C=C(C)C)NC(=O)OC(C)(C)C)C(C)=C1C2(C)C (stereo not drawn) |  | male Sprague-Dawley rat | plasma | intravenous | 1 mg/kg |  | 149 ng·h/mL |
